{"data": "Results from different studies", "MET Y1235D": "Hepatocyte growth factor receptor (MET, Homo sapiens, UniProt P08581, Y1235D)", "MET": "Hepatocyte growth factor receptor (MET, Homo sapiens, UniProt P08581)", "MET M1250T": "Hepatocyte growth factor receptor (MET, Homo sapiens, UniProt P08581, M1250T)", "note": "Compare with care: the assays were run in different laboratories."}
{"Structure (SMILES)": "CNC1C[S+]2CC[S+]3CC[S+](C1)[Ru-4]321([N]=C=S)[n]2c3ccc(OC)cc3c3c4c(c5cc(F)c[n+]1c5c32)C(=O)NC4=O (centres unmarked)", "target": "MET Y1235D", "assay": "KinomeScan", "conditions": "0.1 µM", "how to read": "relative to: untreated", "remaining binding [%]": 100}
{"Structure (SMILES)": "COc1cc(Nc2nccc(-c3cnn4nc(OC)ccc34)n2)cc(C(F)(F)F)c1", "target": "MET", "assay": "binding, competition with immobilised ligand", "conditions": "1 µM", "remaining binding [%]": 100}
{"Structure (SMILES)": "Cc1ccc(-c2c(/C=C(\\C#N)C(=O)NC(C)C)n(CCCO)c3ncnc(N)c23)cc1", "target": "MET Y1235D", "assay": "cell-free assay, competition with immobilised ligand", "conditions": "1 µM", "remaining binding [%]": 88}
{"Structure (SMILES)": "CC(C)=CC1OC(C)(C)C2C=C3C(=O)C(Cl)=CC(O)C3C3C(O)C4OC4C(=O)C132 (centres unmarked)", "target": "MET Y1235D", "assay": "cell-free assay, competition with immobilised ligand", "conditions": "10 µM", "remaining binding [%]": 90}
{"Structure (SMILES)": "C=CC(=O)N1CCCC(n2c(=O)c3ncccc3n(Cc3ccc(Oc4ccccc4)cc3)c2=O)C1 (centres unmarked)", "target": "MET Y1235D", "assay": "cell-free assay, competition with immobilised ligand", "conditions": "1 µM", "remaining binding [%]": 82}
{"Structure (SMILES)": "Nc1ncc2c(n1)-c1c([nH]c3ccc(C4=CCOCC4)cc13)CCC2", "target": "MET M1250T", "assay": "binding, competition with immobilised ligand", "conditions": "1 µM", "remaining binding [%]": 100}
{"Structure (SMILES)": "C=CC(=O)N1CCc2ccc(-n3c(=O)ccc4cnc5ccc(-c6cnn(C)c6)cc5c43)cc21", "target": "MET M1250T", "assay": "KINOMEscan", "conditions": "1 µM", "how to read": "relative to: DMSO control", "remaining binding [%]": 92}
{"Structure (SMILES)": "COc1c(Cl)cccc1Nc1c(-c2ccncc2C#C[C@@]2(C)CCCN2C(=O)/C=C/CN(C)C)[nH]c2c1C(=O)NCC2", "target": "MET Y1235D", "assay": "cell-free assay, competition with immobilised ligand", "conditions": "3 µM", "remaining binding [%]": 85}
{"Structure (SMILES)": "CNC(=O)C1CCN(c2cc(C)c(F)cc2NC(=O)c2ccc(-c3cc(O)ccc3C)c(C)c2)CC1", "target": "MET M1250T", "assay": "binding, competition with immobilised ligand", "conditions": "1 µM", "remaining binding [%]": 100}
{"Structure (SMILES)": "Cc1cnc2nc1Nc1cccc(c1)COC/C=C/COCc1cc(ccc1OCCN1CCOCC1)N2", "target": "MET", "assay": "binding", "conditions": "0.1 µM", "remaining binding [%]": 72}
{"Structure (SMILES)": "CCN1CCN(Cc2ccc(C(=O)Nc3ccc(C)c(NCc4cnc5[nH]ccc5c4OC)c3)cc2C(F)(F)F)CC1", "target": "MET Y1235D", "assay": "binding, competition with immobilised ligand", "conditions": "1 µM", "remaining binding [%]": 100}
{"note": "A few entries again:"}
{"Structure (SMILES)": "Nc1ncc2c(n1)-c1c([nH]c3ccc(C4=CCOCC4)cc13)CCC2", "target": "MET M1250T", "assay": "binding, competition with immobilised ligand", "conditions": "1 µM", "remaining binding [%]": 100}
